Published values of several laboratories.
Lines come from different studies, so protocols differ. pIC50: −log10 of the molar value.
Organism: Escherichia coli

SMILES | assay | test system | setting | measurement | result
CCCC(=O)NCC(=O)N[C@@H](CC(C)C)C(=O)N[C@@H](CC(C)C)C(=O)N[C@@H](CCCCN)C(=O)N[C@@H](CCCNC(=N)N)C(=O)N[C@H](C(=O)N[C@@H](CCCCN)C(=O)N[C@H](C(=O)N[C@@H](CC(C)C)C(=O)N[C@@H](CC(C)C)C(=O)NCCCC[C@H](NC(=O)[C@H](CCCCNC(=O)[C@H](CC(C)C)NC(=O)[C@H](CC(C)C)NC(=O)[C@@H](NC(=O)[C@H](CCCCN)NC(=O)[C@@H](NC(=O)[C@H](CCCNC(=N)N)NC(=O)[C@H](CCCCN)NC(=O)[C@H](CC(C)C)NC(=O)[C@H](CC(C)C)NC(=O)CNC(=O)CCC)[C@@H](C)CC)[C@@H](C)O)NC(=O)[C@H](CC(C)C)NC(=O)[C@H](CC(C)C)NC(=O)[C@@H](NC(=O)[C@H](CCCCN)NC(=O)[C@@H](NC(=O)[C@H](CCCNC(=N)N)NC(=O)[C@H](CCCCN)NC(=O)[C@H](CC(C)C)NC(=O)[C@H](CC(C)C)NC(=O)CNC(=O)CCC)[C@@H](C)CC)[C@@H](C)O)C(N)=O)[C@@H](C)O)[C@@H](C)CC | checkerboard | ATCC 25922 | added: polymyxin B | FIC index | 0.25
Cc1cc(-c2ccc3ccn(CC(=O)O)c(=O)c3c2)ccc1O[C@H]1O[C@H](CO)[C@@H](O)[C@H](O)[C@@H]1O | biofilm formation | UPEC UTI89 |  | pIC50 | 6.92
CC[C@H](C)[C@H](NC(=O)[C@H](CO)NC(=O)[C@H](CO)NC(=O)[C@H](Cc1ccccc1)NC(=O)CN)C(=O)N[C@@H](Cc1ccccc1)C(=O)N[C@@H](CCCNC(=N)N)C(N)=O |  | ATCC 8739 | added: 1 mM MgCl2 | MBC | > 128 µM
CC[C@H](C)[C@H](NC(=O)[C@H](CCCNC(=N)N)NC(=O)[C@H](CCCCN)NC(=O)[C@H](CC(C)C)NC(=O)[C@H](CC(C)C)NC(=O)CN)C(=O)N[C@@H](CCCCN)C(=O)N[C@H](C(=O)N[C@@H](CC(C)C)C(=O)N[C@@H](CC(C)C)C(=O)NCCCC[C@H](NC(=O)[C@H](CC(C)C)NC(=O)[C@H](CC(C)C)NC(=O)[C@@H](NC(=O)[C@H](CCCCN)NC(=O)[C@@H](NC(=O)[C@H](CCCNC(=N)N)NC(=O)[C@H](CCCCN)NC(=O)[C@H](CC(C)C)NC(=O)[C@H](CC(C)C)NC(=O)CN)[C@@H](C)CC)[C@@H](C)O)C(N)=O)[C@@H](C)O | checkerboard | ATCC 25922 | added: polymyxin B | FIC index | 0.125
CCCCCCCCCCCCCC(=O)N[C@@H](Cc1c[nH]c2ccccc12)C(=O)N[C@@H](CCCCN)C(=O)N[C@@H](CCCCN)C(=O)N[C@@H](CCCCN)C(=O)N[C@@H](CCCCN)C(N)=O |  | K12 |  | MBC | 64 µg/mL
C[C@]1(COC(=O)c2ccc(O)c(O)c2)[C@H](C(=O)O)N2C(=O)/C(=C/c3ccccn3)[C@H]2S1(=O)=O | broth microdilution | MG1655 expressing CTX-M-2 | 16 µg/mL | MIC of ceftazidime | ≤ 1 µg/mL
CCCCCC(=O)NCC(=O)N[C@@H](CC(C)C)C(=O)N[C@@H](CC(C)C)C(=O)N[C@@H](CCCCN)C(=O)N[C@@H](CCCNC(=N)N)C(=O)N[C@H](C(=O)N[C@@H](CCCCN)C(=O)N[C@H](C(=O)N[C@@H](CC(C)C)C(=O)N[C@@H](CC(C)C)C(=O)NCCCC[C@H](NC(=O)[C@H](CCCCNC(=O)[C@H](CC(C)C)NC(=O)[C@H](CC(C)C)NC(=O)[C@@H](NC(=O)[C@H](CCCCN)NC(=O)[C@@H](NC(=O)[C@H](CCCNC(=N)N)NC(=O)[C@H](CCCCN)NC(=O)[C@H](CC(C)C)NC(=O)[C@H](CC(C)C)NC(=O)CNC(=O)CCCCC)[C@@H](C)CC)[C@@H](C)O)NC(=O)[C@H](CC(C)C)NC(=O)[C@H](CC(C)C)NC(=O)[C@@H](NC(=O)[C@H](CCCCN)NC(=O)[C@@H](NC(=O)[C@H](CCCNC(=N)N)NC(=O)[C@H](CCCCN)NC(=O)[C@H](CC(C)C)NC(=O)[C@H](CC(C)C)NC(=O)CNC(=O)CCCCC)[C@@H](C)CC)[C@@H](C)O)C(N)=O)[C@@H](C)O)[C@@H](C)CC | checkerboard | ATCC 25922 | added: gentamicin | FIC index | 0.5
CC[C@H](C)[C@H](NC(=O)[C@H](CCCCN)NC(=O)[C@H](CCCCN)NC(=O)[C@H](CC(C)C)NC(=O)[C@H](CCCCN)NC(=O)[C@H](CCC(=O)O)NC(=O)[C@H](CCCCN)NC(=O)[C@@H](NC(=O)[C@H](CCCCN)NC(=O)[C@H](CC(N)=O)NC(=O)[C@H](CCCNC(=N)N)NC(=O)[C@H](Cc1ccccc1)NC(=O)[C@H](CCCCN)NC(=O)[C@H](CCCNC(=N)N)NC(=O)[C@H](CC(C)C)NC(=O)[C@H](CCCNC(=N)N)NC(=O)[C@H](CCCCN)NC(=O)[C@H](CCCNC(=N)N)NC(=O)[C@@H](N)CC(C)C)[C@@H](C)CC)C(=O)NCC(=O)N[C@@H](CCC(N)=O)C(=O)N[C@@H](CCCCN)C(=O)N[C@H](C(=O)N[C@@H](CCC(N)=O)C(=O)NCC(=O)N[C@@H](Cc1ccccc1)C(=O)N[C@H](C(=O)N1CCC[C@H]1C(=O)N[C@@H](CCCCN)C(=O)N[C@@H](CC(C)C)C(=O)O)C(C)C)[C@@H](C)CC | inhibition zone | TOP10 |  | lethal concentration | 1.33 µM
CC[C@H](C)[C@H](N)C(=O)N[C@@H](CC(C)C)C(=O)N[C@@H](CO)C(=O)N[C@@H](C)C(=O)N[C@H](C(=O)N[C@@H](Cc1c[nH]c2ccccc12)C(=O)N[C@@H](CO)C(=O)NCC(=O)N[C@H](C(=O)N[C@@H](CCCCN)C(=O)N[C@@H](CO)C(=O)N[C@@H](CC(C)C)C(=O)N[C@@H](Cc1ccccc1)C(N)=O)[C@@H](C)CC)[C@@H](C)CC |  | pb3 |  | growth inhibitory concentration | 40 µM
CC[C@H](C)[C@H](NC(=O)[C@H](CO)NC(=O)[C@H](CO)NC(=O)[C@H](Cc1ccccc1)NC(=O)CN)C(=O)N[C@@H](Cc1ccccc1)C(=O)N[C@@H](CCCNC(=N)N)C(=O)NCC(=O)N[C@H](C(=O)N[C@@H](C)C(=O)N[C@@H](CCCCN)C(=O)N[C@@H](Cc1ccccc1)C(=O)N[C@@H](C)C(=O)N[C@@H](CO)C(=O)N[C@@H](CCCCN)C(=O)NCC(=O)N[C@@H](CC(C)C)C(=O)NCC(=O)N[C@@H](CCCCN)C(=O)N[C@@H](CC(=O)O)C(=O)N[C@@H](CC(C)C)C(=O)N[C@@H](C)C(=O)N[C@@H](CCCNC(=N)N)C(N)=O)C(C)C |  | ATCC 8739 | added: 2.5 mM CaCl2 | MBC | > 128 µM
CC[C@H](C)[C@H](NC(=O)[C@H](CCCCN)NC(=O)[C@H](CCCCN)NC(=O)[C@H](CC(C)C)NC(=O)[C@H](CCCCN)NC(=O)[C@H](CCC(=O)O)NC(=O)[C@H](CCCCN)NC(=O)[C@@H](NC(=O)[C@H](CCCCN)NC(=O)[C@H](CC(N)=O)NC(=O)[C@H](CCCNC(=N)N)NC(=O)[C@H](Cc1ccccc1)NC(=O)[C@H](CCCCN)NC(=O)[C@H](CCCNC(=N)N)NC(=O)[C@H](CC(C)C)NC(=O)[C@H](CCCNC(=N)N)NC(=O)[C@H](CCCCN)NC(=O)[C@H](CCCNC(=N)N)NC(=O)[C@H](CC(C)C)NC(=O)[C@@H](N)CCCNC(=N)N)[C@@H](C)CC)C(=O)NCC(=O)N[C@@H](CCC(N)=O)C(=O)N[C@@H](CCCCN)C(=O)N[C@H](C(=O)N[C@@H](CCC(N)=O)C(=O)NCC(=O)N[C@@H](Cc1ccccc1)C(=O)N[C@H](C(=O)N1CCC[C@H]1C(=O)N[C@@H](CCCCN)C(=O)N[C@@H](CC(C)C)C(=O)N[C@@H](CCC(N)=O)C(=O)N1CCC[C@H]1C(=O)N[C@@H](CO)C(=O)N[C@@H](CCCCN)C(=O)N[C@@H](CCC(N)=O)C(=O)N[C@@H](CO)C(=O)O)C(C)C)[C@@H](C)CC | inhibition zone | CIP. J14b |  | lethal concentration | 2.17 µM
Cc1ccc([C@H]2N[C@H](C(=O)O)Cc3c2[nH]c2ccccc32)c(C)c1 |  | BL21(DE3) | 250 µM, 18 h | growth inhibition | 0%
Cc1cc(=O)nc(NC(=O)NCCCCCCNC(=O)NCCCCCCNC(=O)OCCOCCOCCOCCOCCOCCOCC(=O)N[C@@H](CC(C)C)C(=O)N[C@@H](CCCCN)C(=O)N[C@@H](CC(C)C)C(=O)N[C@@H](CC(C)C)C(=O)N[C@@H](CCCCN)C(=O)N[C@@H](CCCCN)C(=O)N[C@@H](CC(C)C)C(=O)N[C@@H](CC(C)C)C(=O)N[C@@H](CCCCN)C(=O)N[C@@H](CCCCN)C(=O)N[C@@H](CC(C)C)C(=O)N[C@@H](CC(C)C)C(=O)N[C@@H](CCCCN)C(=O)N[C@@H](CC(C)C)C(=O)N[C@@H](CC(C)C)C(N)=O)[nH]1 |  | ATCC 8937, RPMI medium | 24 h, 37 °C | LC99.9 | 1.9 to 3.7 µM
CCCCCCCCCCCCCC(=O)N[C@@H](Cc1ccccc1)C(=O)N[C@@H](CCCCN)C(=O)N[C@@H](CCCCN)C(=O)N[C@@H](CCCCN)C(=O)N[C@@H](CCCCN)C(N)=O |  | K12 |  | MBC | 64 µg/mL
CC[C@H](C)[C@H](NC(=O)[C@H](CCCCN)NC(=O)[C@H](CCCCN)NC(=O)[C@H](CC(C)C)NC(=O)[C@H](CCCCN)NC(=O)[C@H](CCC(=O)O)NC(=O)[C@H](CCCCN)NC(=O)[C@@H](NC(=O)[C@H](CCCCN)NC(=O)[C@H](CC(N)=O)NC(=O)[C@H](CCCNC(=N)N)NC(=O)[C@H](Cc1ccccc1)NC(=O)[C@H](CCCCN)NC(=O)[C@H](CCCNC(=N)N)NC(=O)[C@H](CC(C)C)NC(=O)[C@H](CCCNC(=N)N)NC(=O)[C@H](CCCCN)NC(=O)[C@H](CCCNC(=N)N)NC(=O)[C@H](CC(C)C)NC(=O)CN)[C@@H](C)CC)C(=O)NCC(=O)N[C@@H](CCC(N)=O)C(=O)N[C@@H](CCCCN)C(=O)N[C@H](C(=O)N[C@@H](CCC(N)=O)C(=O)NCC(=O)N[C@@H](Cc1ccccc1)C(=O)N[C@H](C(=O)N1CCC[C@H]1C(=O)N[C@@H](CCCCN)C(=O)N[C@@H](CC(C)C)C(=O)N[C@@H](C)C(=O)N1CCC[C@H]1C(=O)N[C@@H](CCCNC(=N)N)C(=O)N[C@H](C(=O)N[C@@H](CC(=O)O)C(=O)N[C@@H](Cc1ccc(O)cc1)C(=O)O)[C@@H](C)O)C(C)C)[C@@H](C)CC | inhibition zone | CIP. J14b |  | lethal concentration | 2.19 µM
CC[C@H](C)[C@H](NC(=O)[C@@H]1CCCN1C(=O)[C@H](CCCNC(=N)N)NC(=O)[C@@H]1CCCN1C(=O)[C@@H]1CCCN1C(=O)[C@@H](NC(=O)[C@@H]1CCCN1C(=O)[C@H](CCCNC(=N)N)NC(=O)[C@@H]1CCCN1C(=O)[C@H](CC(C)C)NC(=O)[C@H](Cc1ccc(O)cc1)NC(=O)[C@H](CO)NC(=O)CNC(=O)[C@H](CCCCN)NC(=O)[C@H](CC(=O)O)NC(=O)[C@@H](N)C(C)C)[C@@H](C)O)C(=O)N[C@@H](Cc1ccc(O)cc1)C(=O)N[C@@H](CC(N)=O)C(=O)N[C@@H](CCCNC(=N)N)C(=O)N[C@@H](CC(N)=O)C(N)=O | broth microdilution | D22 |  | MBC | 8 µg/mL

For quick reference, copied from above:
SMILES | assay | test system | setting | measurement | result
C[C@]1(COC(=O)c2ccc(O)c(O)c2)[C@H](C(=O)O)N2C(=O)/C(=C/c3ccccn3)[C@H]2S1(=O)=O | broth microdilution | MG1655 expressing CTX-M-2 | 16 µg/mL | MIC of ceftazidime | ≤ 1 µg/mL
